{"data": "Published values from different studies", "note": "Numbered parts are unrelated; each lists some results of a single study.", "chain of UniProt P08069 (whole entry, looked up)": "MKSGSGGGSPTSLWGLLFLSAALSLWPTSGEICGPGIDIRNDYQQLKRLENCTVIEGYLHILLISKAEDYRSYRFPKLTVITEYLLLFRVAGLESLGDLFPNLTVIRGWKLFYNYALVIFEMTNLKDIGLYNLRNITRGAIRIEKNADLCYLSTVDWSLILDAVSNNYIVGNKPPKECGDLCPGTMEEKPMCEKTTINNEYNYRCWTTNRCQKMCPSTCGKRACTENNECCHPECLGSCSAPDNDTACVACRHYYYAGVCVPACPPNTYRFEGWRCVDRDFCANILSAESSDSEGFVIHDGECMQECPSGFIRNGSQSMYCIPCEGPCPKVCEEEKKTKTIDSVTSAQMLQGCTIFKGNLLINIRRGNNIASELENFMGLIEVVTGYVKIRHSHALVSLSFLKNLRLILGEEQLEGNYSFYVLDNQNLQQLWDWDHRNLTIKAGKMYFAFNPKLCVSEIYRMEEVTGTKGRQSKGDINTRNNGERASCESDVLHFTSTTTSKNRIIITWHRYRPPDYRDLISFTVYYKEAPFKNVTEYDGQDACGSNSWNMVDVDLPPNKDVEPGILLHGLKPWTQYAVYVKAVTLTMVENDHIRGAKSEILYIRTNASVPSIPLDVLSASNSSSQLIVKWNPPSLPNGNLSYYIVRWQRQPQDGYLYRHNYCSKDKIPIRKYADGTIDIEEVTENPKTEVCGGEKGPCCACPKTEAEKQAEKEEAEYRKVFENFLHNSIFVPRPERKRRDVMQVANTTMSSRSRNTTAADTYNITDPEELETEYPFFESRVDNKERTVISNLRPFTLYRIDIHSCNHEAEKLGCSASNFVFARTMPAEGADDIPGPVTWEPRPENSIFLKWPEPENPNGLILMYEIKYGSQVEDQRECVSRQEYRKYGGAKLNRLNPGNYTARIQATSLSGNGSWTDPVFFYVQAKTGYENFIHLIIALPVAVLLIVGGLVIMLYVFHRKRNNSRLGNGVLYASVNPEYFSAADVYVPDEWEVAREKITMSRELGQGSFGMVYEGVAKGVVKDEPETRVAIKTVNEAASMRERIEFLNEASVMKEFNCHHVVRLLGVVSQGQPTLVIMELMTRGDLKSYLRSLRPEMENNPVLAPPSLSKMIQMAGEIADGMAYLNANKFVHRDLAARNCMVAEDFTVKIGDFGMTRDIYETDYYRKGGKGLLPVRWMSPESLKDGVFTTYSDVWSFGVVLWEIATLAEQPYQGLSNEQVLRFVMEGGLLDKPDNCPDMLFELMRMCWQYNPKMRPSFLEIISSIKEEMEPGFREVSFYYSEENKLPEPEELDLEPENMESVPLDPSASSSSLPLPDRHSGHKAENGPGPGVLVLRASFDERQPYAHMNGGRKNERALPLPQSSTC", "chain of UniProt O60674 (whole entry, looked up)": "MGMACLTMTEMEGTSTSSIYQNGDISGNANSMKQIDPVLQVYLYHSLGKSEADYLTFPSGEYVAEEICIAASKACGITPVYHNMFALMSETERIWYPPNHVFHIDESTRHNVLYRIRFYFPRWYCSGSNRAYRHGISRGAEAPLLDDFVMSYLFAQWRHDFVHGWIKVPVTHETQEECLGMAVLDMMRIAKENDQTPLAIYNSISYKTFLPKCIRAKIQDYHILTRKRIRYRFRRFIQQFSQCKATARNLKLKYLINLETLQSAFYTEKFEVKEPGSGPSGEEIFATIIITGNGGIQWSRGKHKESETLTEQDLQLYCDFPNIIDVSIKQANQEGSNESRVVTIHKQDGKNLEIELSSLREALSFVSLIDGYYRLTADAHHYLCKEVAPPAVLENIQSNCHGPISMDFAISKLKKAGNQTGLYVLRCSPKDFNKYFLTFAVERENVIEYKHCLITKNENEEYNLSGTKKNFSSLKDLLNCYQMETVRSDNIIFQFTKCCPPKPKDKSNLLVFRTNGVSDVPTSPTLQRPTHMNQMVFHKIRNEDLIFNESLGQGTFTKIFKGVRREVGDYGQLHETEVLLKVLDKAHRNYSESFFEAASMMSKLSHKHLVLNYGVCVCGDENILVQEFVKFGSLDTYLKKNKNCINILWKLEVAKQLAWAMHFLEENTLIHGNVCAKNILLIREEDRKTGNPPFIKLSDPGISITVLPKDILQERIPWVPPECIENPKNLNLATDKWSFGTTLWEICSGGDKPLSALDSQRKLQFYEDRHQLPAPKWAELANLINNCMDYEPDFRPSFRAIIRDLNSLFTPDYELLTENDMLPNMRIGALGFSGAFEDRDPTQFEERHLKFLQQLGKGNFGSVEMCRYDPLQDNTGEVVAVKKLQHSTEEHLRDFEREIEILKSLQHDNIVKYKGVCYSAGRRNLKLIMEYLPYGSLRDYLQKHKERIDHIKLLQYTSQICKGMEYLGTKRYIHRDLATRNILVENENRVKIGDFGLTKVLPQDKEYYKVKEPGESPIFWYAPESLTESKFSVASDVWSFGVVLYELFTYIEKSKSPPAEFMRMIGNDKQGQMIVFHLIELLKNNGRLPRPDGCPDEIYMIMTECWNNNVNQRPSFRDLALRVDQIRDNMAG", "chain of UniProt P42680 (whole entry, looked up)": "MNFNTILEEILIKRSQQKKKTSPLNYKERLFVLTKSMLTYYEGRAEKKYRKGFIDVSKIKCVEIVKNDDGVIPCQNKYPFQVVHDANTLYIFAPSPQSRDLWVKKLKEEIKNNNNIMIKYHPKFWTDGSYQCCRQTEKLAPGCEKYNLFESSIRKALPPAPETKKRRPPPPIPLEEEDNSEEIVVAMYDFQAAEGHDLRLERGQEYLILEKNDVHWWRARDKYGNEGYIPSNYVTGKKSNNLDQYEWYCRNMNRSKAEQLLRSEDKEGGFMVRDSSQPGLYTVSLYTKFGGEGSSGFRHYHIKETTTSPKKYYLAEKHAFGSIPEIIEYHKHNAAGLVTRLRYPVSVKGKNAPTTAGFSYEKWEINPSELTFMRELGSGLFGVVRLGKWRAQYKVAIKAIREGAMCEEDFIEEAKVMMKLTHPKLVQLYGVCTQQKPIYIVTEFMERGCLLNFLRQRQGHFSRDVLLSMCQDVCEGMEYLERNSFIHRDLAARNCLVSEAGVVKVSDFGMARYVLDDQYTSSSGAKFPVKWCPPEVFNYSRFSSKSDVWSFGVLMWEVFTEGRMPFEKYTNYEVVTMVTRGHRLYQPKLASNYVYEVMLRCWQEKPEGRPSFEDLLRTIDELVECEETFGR", "chain of UniProt P48730 (whole entry, looked up)": "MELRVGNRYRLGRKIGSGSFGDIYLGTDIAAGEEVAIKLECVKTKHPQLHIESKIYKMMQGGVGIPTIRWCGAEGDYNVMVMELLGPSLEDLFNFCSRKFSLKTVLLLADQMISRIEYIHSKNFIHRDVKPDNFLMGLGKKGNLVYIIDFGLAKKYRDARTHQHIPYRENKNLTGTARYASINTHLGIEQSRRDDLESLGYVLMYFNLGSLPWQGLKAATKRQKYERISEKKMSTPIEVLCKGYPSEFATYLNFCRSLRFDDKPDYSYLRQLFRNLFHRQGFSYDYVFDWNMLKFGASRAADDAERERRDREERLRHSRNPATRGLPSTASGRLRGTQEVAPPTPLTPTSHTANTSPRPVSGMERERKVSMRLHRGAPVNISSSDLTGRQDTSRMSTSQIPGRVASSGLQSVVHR", "chain of UniProt P19525 (whole entry, looked up)": "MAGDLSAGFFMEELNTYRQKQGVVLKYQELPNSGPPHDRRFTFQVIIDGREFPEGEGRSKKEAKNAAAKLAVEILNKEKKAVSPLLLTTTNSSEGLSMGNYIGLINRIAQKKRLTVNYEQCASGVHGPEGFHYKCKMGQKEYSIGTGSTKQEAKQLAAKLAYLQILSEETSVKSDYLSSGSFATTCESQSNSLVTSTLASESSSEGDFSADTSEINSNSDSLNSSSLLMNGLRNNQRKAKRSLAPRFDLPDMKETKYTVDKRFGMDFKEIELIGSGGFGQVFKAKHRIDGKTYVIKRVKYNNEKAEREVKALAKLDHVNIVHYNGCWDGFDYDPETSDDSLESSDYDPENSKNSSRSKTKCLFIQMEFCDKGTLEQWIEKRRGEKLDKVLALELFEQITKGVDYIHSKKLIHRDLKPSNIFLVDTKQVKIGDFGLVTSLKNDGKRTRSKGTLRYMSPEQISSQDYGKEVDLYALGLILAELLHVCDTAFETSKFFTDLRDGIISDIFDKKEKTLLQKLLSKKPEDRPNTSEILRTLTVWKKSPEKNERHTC", "chain of UniProt Q9UBS0 (whole entry, looked up)": "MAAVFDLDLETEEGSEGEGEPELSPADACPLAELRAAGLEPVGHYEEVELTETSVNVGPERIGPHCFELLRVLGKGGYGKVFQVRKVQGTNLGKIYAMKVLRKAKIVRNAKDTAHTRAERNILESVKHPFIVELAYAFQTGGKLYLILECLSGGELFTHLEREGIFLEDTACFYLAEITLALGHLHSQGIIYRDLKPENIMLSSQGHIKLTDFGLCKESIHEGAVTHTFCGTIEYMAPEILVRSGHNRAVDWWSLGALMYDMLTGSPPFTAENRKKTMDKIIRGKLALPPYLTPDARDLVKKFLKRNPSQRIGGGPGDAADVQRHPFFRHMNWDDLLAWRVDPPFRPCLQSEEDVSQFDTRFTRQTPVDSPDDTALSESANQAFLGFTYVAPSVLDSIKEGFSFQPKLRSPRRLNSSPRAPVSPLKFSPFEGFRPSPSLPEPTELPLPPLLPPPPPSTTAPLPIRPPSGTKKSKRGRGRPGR", "chain of UniProt Q9HBY8 (whole entry, looked up)": "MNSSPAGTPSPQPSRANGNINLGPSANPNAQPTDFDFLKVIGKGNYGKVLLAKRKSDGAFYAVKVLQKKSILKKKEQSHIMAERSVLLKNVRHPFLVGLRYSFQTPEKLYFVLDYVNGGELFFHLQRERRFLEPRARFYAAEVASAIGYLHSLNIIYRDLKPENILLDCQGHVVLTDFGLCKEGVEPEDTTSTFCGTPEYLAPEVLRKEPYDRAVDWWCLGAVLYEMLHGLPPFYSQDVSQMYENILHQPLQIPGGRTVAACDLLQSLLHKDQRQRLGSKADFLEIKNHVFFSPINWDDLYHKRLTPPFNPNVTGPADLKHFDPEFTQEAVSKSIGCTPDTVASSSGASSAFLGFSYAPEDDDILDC"}
{"data": "Study 1", "Structure (SMILES)": "CCC(=O)N[C@@H]1CC[C@H](C(=O)N(C)c2ccc(-c3nc4ccccc4o3)cc2)C1", "concentration": "1 µM"}
{"target": "Megakaryocyte-associated tyrosine-protein kinase (MATK, Homo sapiens, UniProt P42679)", "read-out": "cell-free assay", "technique": "competition with immobilised ligand", "remaining binding [%]": 100}
{"target": "Ephrin type-A receptor 5 (EPHA5, Homo sapiens, UniProt P54756)", "read-out": "cell-free assay", "technique": "competition with immobilised ligand", "remaining binding [%]": 100}
{"target": "Tyrosine-protein kinase BTK (BTK, Homo sapiens, UniProt Q06187)", "read-out": "cell-free assay", "technique": "competition with immobilised ligand", "remaining binding [%]": 87}
{"target": "Serine/threonine-protein kinase mTOR (MTOR, Homo sapiens, UniProt P42345)", "read-out": "cell-free assay", "technique": "competition with immobilised ligand", "remaining binding [%]": 99}
{"target": "Platelet-derived growth factor receptor beta (PDGFRB, Homo sapiens, UniProt P09619)", "read-out": "cell-free assay", "technique": "competition with immobilised ligand", "remaining binding [%]": 98}
{"target": "Interferon-induced, double-stranded RNA-activated protein kinase (EIF2AK2, Homo sapiens, UniProt P19525)", "read-out": "cell-free assay", "technique": "competition with immobilised ligand", "remaining binding [%]": 100}
{"target": "Serine/threonine-protein kinase BRSK1 (BRSK1, Homo sapiens, UniProt Q8TDC3)", "read-out": "cell-free assay", "technique": "competition with immobilised ligand", "remaining binding [%]": 100}
{"target": "Serine/threonine-protein kinase D3 (PRKD3, Homo sapiens, UniProt O94806)", "read-out": "cell-free assay", "technique": "competition with immobilised ligand", "remaining binding [%]": 100}
{"target": "Cyclin-dependent kinase 19 (CDK19, Homo sapiens, UniProt Q9BWU1)", "technique": "competition binding", "remaining binding [%]": 82}
{"data": "Study 2", "Structure (SMILES)": "CCOc1cc2ncnc(Nc3cccc(Br)c3)c2cc1OCC", "read-out": "enzyme activity", "action": "inhibitor", "concentration": "0.5 µM", "reference": "control"}
{"target": "Maternal embryonic leucine zipper kinase (MELK, Homo sapiens, UniProt Q14680)", "remaining activity [%]": 88.1}
{"target": "Tyrosine-protein kinase Tec (TEC, Homo sapiens, UniProt P42680)", "remaining activity [%]": 120}
{"target": "Serine/threonine-protein kinase PAK 4 (PAK4, Homo sapiens, UniProt O96013)", "remaining activity [%]": 115}
{"target": "Muscle, skeletal receptor tyrosine-protein kinase (MUSK, Homo sapiens, UniProt O15146)", "remaining activity [%]": 92.6}
{"target": "Serine/threonine-protein kinase PAK 5 (PAK5, Homo sapiens, UniProt Q9P286)", "remaining activity [%]": 99.1}
{"target": "Serine/threonine-protein kinase Sgk2 (SGK2, Homo sapiens, UniProt Q9HBY8)", "remaining activity [%]": 106}
{"target": "Tyrosine-protein kinase JAK2 (JAK2, Homo sapiens, UniProt O60674)", "remaining activity [%]": 99}
{"target": "Insulin-like growth factor 1 receptor (IGF1R, Homo sapiens, UniProt P08069)", "remaining activity [%]": 101}
{"target": "Ribosomal protein S6 kinase beta-2 (RPS6KB2, Homo sapiens, UniProt Q9UBS0)", "remaining activity [%]": 102}
{"target": "Serine/threonine-protein kinase PAK 1 (PAK1, Homo sapiens, UniProt Q13153)", "remaining activity [%]": 95.2}
{"target": "Cyclin-dependent kinase 5, with p35 (CDK5, Homo sapiens, UniProt Q00535)", "remaining activity [%]": 99.2}
{"target": "Casein kinase I isoform delta (CSNK1D, Homo sapiens, UniProt P48730)", "remaining activity [%]": 103}
{"target": "Receptor tyrosine-protein kinase erbB-2 (ERBB2, Homo sapiens, UniProt P04626)", "remaining activity [%]": 13.8}
{"data": "Study 3", "target": "Interferon regulatory factor 5, full length, phosphomimetic (IRF5, Homo sapiens, UniProt Q13568-2, residues 1-514, S451D/S453D/S456D/S462D)", "technique": "protein-binding microarray", "molecule type": "double-stranded DNA, one strand shown", "medium": "in vitro", "concentration": "940 nM top", "notes": "60-bp whole probe", "together with": "salmon DNA 0.4 mg/ml", "reference": "random background probes", "direction": "higher = stronger binding", "constant ends, left off below": "GCCTAGCAC … GTCTTGATTCGCTTGACGCTGCTG"}
{"Oligonucleotide": "GACTATATCGGGTATCGAGACGTGCTA", "fitted relative affinity": "1.14 z-score"}
{"Oligonucleotide": "GACGGTATCGACTTTCCGGACGTGCTA", "fitted relative affinity": "4.89 z-score"}
{"Oligonucleotide": "GCGCCTGTAGCCCCTCCAGGGTGCTAG", "fitted relative affinity": "-0.569 z-score"}
{"Oligonucleotide": "TTAGATCTCAGACTGGATTGGTGCTAG", "fitted relative affinity": "-0.314 z-score"}
{"Oligonucleotide": "CACGGTATCGGTATCGGGACGTGCTAG", "fitted relative affinity": "7.89 z-score"}
{"Oligonucleotide": "AGGTGGGAGGGGACAGTGGTGTGCTAG", "fitted relative affinity": "1.24 z-score"}
{"Oligonucleotide": "GAGGGTTTCGACTATCGGGACGTGCTA", "fitted relative affinity": "6.48 z-score"}
{"Oligonucleotide": "GTAGATATCAGTCTCGATTAGTGCTAG", "fitted relative affinity": "2.97 z-score"}
{"data": "Further values, each from its own experiment"}
{"SMILES": "CCOC(=O)[C@@H]1CSCC(=O)N[C@H](CC)C(=O)N(C)[C@@H](C)C(=O)N[C@H](CC(C)C)C(=O)N2CCC[C@H]2C(=O)N(CC(C)C)CC(=O)N[C@@H](CC(C)C)C(=O)N(C)[C@@H](C)C(=O)N[C@@H](CC(C)C)C(=O)N1C", "medium": "hydrocarbon/water", "quantity": "logD", "result": 0.662}
{"note": "Some of these lines once more (study 3):"}
{"Oligonucleotide": "GACTATATCGGGTATCGAGACGTGCTA", "fitted relative affinity": "1.14 z-score"}
{"Oligonucleotide": "CACGGTATCGGTATCGGGACGTGCTAG", "fitted relative affinity": "7.89 z-score"}
{"Oligonucleotide": "GAGGGTTTCGACTATCGGGACGTGCTA", "fitted relative affinity": "6.48 z-score"}
